Results from different studies.
Numbered parts are unrelated; each lists some results of a single study.

Study 1
Target: Interferon regulatory factor 7, full length, phosphomimetic (IRF7, Homo sapiens, UniProt Q92985, residues 1-503, S101K/S471D/S472D/S475D/S476D/S477D/S483D/S484D/S487D)
Chain of UniProt Q92985 (whole entry, unmodified, looked up): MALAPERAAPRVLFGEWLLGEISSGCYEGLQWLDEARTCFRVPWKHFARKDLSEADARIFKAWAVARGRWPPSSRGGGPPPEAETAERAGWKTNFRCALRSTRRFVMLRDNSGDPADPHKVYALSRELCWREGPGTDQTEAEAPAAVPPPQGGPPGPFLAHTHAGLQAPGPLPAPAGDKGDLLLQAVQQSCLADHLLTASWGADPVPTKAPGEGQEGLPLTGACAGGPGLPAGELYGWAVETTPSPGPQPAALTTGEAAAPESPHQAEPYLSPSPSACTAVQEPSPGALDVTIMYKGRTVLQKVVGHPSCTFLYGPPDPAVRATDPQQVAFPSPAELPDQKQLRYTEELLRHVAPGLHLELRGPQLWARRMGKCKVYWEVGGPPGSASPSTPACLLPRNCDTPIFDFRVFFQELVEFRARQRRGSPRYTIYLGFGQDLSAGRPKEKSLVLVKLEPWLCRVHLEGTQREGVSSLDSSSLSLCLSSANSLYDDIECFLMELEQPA
Method: protein-binding microarray
Form: double-stranded DNA, one strand shown
Medium: in vitro
Concentration: 250 nM
Notes: 60-bp whole probe
Added: salmon DNA 0.4 mg/ml
Relative to: random background probes
Direction: higher = stronger binding
Endpoint: log fluorescence
All sequences stand within: GCCTAGCAC … GTCTTGATTCGCTTGACGCTGCTG
TTAGGTTTCCTTTCCCTTTGGTGCTAG: 4.62 z-score
TTTGGACTGGACTATCGGTTAGTGCTA: -0.739 z-score
ACAGGAGTGTTTCTCAGTTTGTGCTAG: 0.00537 z-score
GACGATATCAGTTTCCAGACGTGCTAG: 0.755 z-score
TTAGATATCAAACTGGATTAGTGCTAG: -0.0394 z-score
GTGGGACCCATGAACACTCAGTGCTAG: -0.233 z-score
GTCGGTATCGGTATCGGGACGTGCTAG: 1.95 z-score
TCATTTGTATTTTTGATACTGTGCTAG: 1.5 z-score
TTCGGTATCGGGACTGGGTTAGTGCTA: 0.331 z-score
GACGATCTCAGTATCCAGACGTGCTAG: -0.269 z-score
TCACCTCTGTTTTGAGCACTGTGCTAG: 0.533 z-score
TTATGTTTCGGTATCGGTTAGTGCTAG: 6.02 z-score
GACGGGCTGCTTTTCCTGACGTGCTAG: -0.572 z-score
ACCCCAAAGAGGGGCAGTGTGTGCTAG: 0.0682 z-score
CTGAGATGCATTCTGGGCCCGTGCTAG: -0.46 z-score
TTAGTTATCGGGTATCGGTTAGTGCTA: 1.19 z-score
TTAGGTTTCCTTGTCCTTTAGTGCTAG: 1.26 z-score
CACGATCTCAGTTTCGAGACGTGCTAG: 4.13 z-score
GACGGTCTCCTACTGCGGACGTGCTAG: -0.0748 z-score
TCACCTGTCCATTCCTTACTGTGCTAG: 0.236 z-score
GACGGTATCGGGACTGGGGGCGTGCTA: 0.844 z-score
TTAGGTACCGGTATCGGTTAGTGCTAG: 2.4 z-score
TTAGGTTTCGGGCTCGGTTAGTGCTAG: 4.15 z-score
TTAAGTTTCGGTCTCGGTTAGTGCTAG: 9.52 z-score
TTACGTCTCGGACTGGGTTAGTGCTAG: 0.383 z-score

Study 2
Target: Histone acetyltransferase KAT6A, both winged helices, GST fusion (KAT6A, Homo sapiens, UniProt Q92794, residues 1-181)
Method: protein binding microarray
Form: double-stranded DNA, one strand shown
Medium: in vitro
Concentration: not given
Notes: 8-mer, flanks averaged, mean of 2 arrays, mostly near background
Relative to: not given
Direction: higher = stronger binding
Endpoint: E-score
Residues (chain): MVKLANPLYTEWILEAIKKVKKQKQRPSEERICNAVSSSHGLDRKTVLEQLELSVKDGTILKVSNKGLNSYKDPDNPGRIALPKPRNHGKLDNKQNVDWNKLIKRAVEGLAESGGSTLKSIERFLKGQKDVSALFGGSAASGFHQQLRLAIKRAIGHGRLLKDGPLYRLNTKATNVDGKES
CGATTATC: 0.0931
CCTCACAG: -0.132
AAATTGGG: -0.153
ACTCAACA: -0.0671
ATATAAAG: -0.0645
ACGTGGAA: 0.152
TCCGCGGA: 0.314
AAGGTTTG: -0.118
CGCGTTAC: 0.296
CTTTGACC: 0.0324
CCCTAATA: -0.265
CACAAACA: -0.134
TCTTAAGA: -0.0897
GCTAATCA: 0.0279
GATCGACA: -0.126
CATCTAGC: -0.149
ATTCGAAT: -0.207
CACCGCGA: 0.255
AGGGCTAA: -0.037
GGGCGAAC: 0.0208
ACAGATTA: -0.103
CGTCGCTA: 0.223
ATTTACCA: -0.141
CGTGCCAC: 0.124
AGTCCATC: -0.00019

Study 3
Target: Fragile X messenger ribonucleoprotein 1, C-terminal low-complexity region (Fmr1, Mus musculus, UniProt P35922)
Method: RNA Bind-n-Seq
Form: RNA
Medium: in vitro
Concentration: 200 nM
Notes: whole 134-nt RNA, ends assumed
Added: 150 mM LiCl
Relative to: input library
Direction: higher = stronger binding
Endpoint: log2 enrichment
Each molecule: 7-deaza-guanosine replaces G
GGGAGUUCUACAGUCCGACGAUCCAAGUCCUGUGCUACACAUCGUAUGUACCGAAUCGGGAAAGGGAAAGGGGAAAGGAAAGUAUUAUGUUACGCCGUUCGGAUCUGCACUUCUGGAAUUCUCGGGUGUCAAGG: -0.971
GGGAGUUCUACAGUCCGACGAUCUCCUGUGCUACACAUCGUAUGUACCGAAUCGGGAAAAAAAGGGAAAGGGAAAAAAAGGGAAAGUAUUAUGUUACGCCGUUCGGAUCUGCAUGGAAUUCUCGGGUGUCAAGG: 0.74
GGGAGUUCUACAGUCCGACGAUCGUCCUGUGCUACACAUCGUAUGUACCGAAUCGGGGAAAAAGGAAAAAGGGAAAAAGGGAAAGUAUUAUGUUACGCCGUUCGGAUCUGCACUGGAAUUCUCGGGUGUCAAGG: 0.128
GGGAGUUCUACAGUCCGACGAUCACCAUGCAGGUGGGCAUCUUUGGGAAGUGGGGCAAGGGGGGGAUAGGGAGGGGGUUAACACUUUGGGAACAGGUGGUCCCAGGUCGUUUCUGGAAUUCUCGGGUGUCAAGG: 1.46
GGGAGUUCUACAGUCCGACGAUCAAGUCCUGUGCUACACAUCGUAUGUACCGAAUCGGCCCCGGGCCCCGGCCCCGGGGAAAGUAUUAUGUUACGCCGUUCGGAUCUGCACUUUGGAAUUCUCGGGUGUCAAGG: -2.14
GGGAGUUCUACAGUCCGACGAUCCCUCAAGUCCUGUGCUACACAUCGUAUGUACCGAAUCGGCCGGGGCCGGCCGGAAAGUAUUAUGUUACGCCGUUCGGAUCUGCACUUCCAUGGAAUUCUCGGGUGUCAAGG: 0.127
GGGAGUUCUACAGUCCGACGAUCCCUGUGCUACACAUCGUAUGUACCGAAUCGGGUUUUUUUGGGUUUUUGGGUUUUUUUGGGAAAGUAUUAUGUUACGCCGUUCGGAUCUGCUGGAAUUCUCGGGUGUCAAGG: -1.16
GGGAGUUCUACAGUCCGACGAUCUCCUGUGCUACACAUCGUAUGUACCGAAUCAAACCCCCCCAAAUUUAAAUUUUUUUAAAAAAGUAUUAUGUUACGCCGUUCGGAUCUGCAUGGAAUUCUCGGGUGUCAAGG: 1.96
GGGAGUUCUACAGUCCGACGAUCAAGUCCUGUGCUACACAUCGUAUGUACCGAAUCGGCCCCGGGCCCCGGGGCCCCGGGAAAGUAUUAUGUUACGCCGUUCGGAUCUGCACUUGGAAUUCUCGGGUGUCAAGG: -2.5
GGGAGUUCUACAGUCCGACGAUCAGUCCUGUGCUACACAUCGUAUGUACCGAAUCAAAUUUUUAAAUUUAAACCCCCAAAAAAGUAUUAUGUUACGCCGUUCGGAUCUGCACUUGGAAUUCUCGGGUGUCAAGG: 0.0933
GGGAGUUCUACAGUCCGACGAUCCACAGACAACACGCACCCACACAGACACAGAGGGAAGGGGUUGGGAUGGGGACAGGGUGCACAGCAGGGCGGGGUAGGACCCUAGCCCCUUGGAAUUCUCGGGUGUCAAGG: -0.313

Study 4
Target: Sal-like protein 4, full length isoform B (SALL4, Homo sapiens, UniProt Q9UJQ4-2, residues 1-616)
Method: universal PBM
Form: double-stranded DNA, one strand shown
Medium: in vitro
Concentration: not given
Notes: 8-mer, flanks averaged, mean of replicates
Direction: higher = stronger binding
Endpoint: E-score
CGATCTAG: -0.045
CTGCTAGA: -0.168
GGGCCGTA: -0.199
GTCGTGTA: 0.0869
AGCGACCT: -0.177
ACAACCGC: -0.121
TGGACCCA: 0.00353
CGTGATCC: -0.345
AGTACGCA: -0.0436
GACACAAC: 0.158
GGAGATAC: -0.208
CACTAGGG: -0.293
CGCGGTCA: -0.257
CTAGACTA: -0.0123
AGACATTG: 0.042
GGGCAAAA: 0.00152
ATAACAAT: 0.366
ATTTATCA: 0.291
TCGCAACA: -0.101

Study 5
Target: Protein max, full length (MAX, Homo sapiens, UniProt P61244-2, residues 1-151)
Method: protein-binding microarray
Form: double-stranded DNA, one strand shown
Medium: in vitro
Concentration: not given
Notes: k-mer, scored over probes, only values ≥0.25
Direction: higher = stronger binding
Endpoint: E-score
CCACGAGG: 0.478
CATGTAAG: 0.255
CGCCACAC: 0.304
GGAACGCA: 0.282
AACGTGTC: 0.4
CAAATGTG: 0.26
CTACACGC: 0.389
CATCGTGC: 0.346
ATGCACAT: 0.36
AGAAGCAT: 0.288
CAAACGTG: 0.365
CATGGAGG: 0.305
GCGCGCAC: 0.294
CCACGTTA: 0.385
ACGTTGAC: 0.294
AATGCGTG: 0.31
CGTGACGC: 0.348

Single results of other studies
PhoQ, residues 284 288 289 292 302 303 GNNTDL
fold induction (PhoP, residues 12 14 15 18 19 FWNTL (Escherichia coli, UniProt P23836); Sort-seq, item: YFP reporter; E. coli; PhoQ-PhoP variant library, added: 10 µM Mg2+; relative to: high Mg2+ state, higher = stronger signaling): 4.8

Excerpt of the above (study 3):
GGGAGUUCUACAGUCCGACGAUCAAGUCCUGUGCUACACAUCGUAUGUACCGAAUCGGCCCCGGGCCCCGGCCCCGGGGAAAGUAUUAUGUUACGCCGUUCGGAUCUGCACUUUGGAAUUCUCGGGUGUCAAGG: -2.14
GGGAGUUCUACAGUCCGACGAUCCCUGUGCUACACAUCGUAUGUACCGAAUCGGGUUUUUUUGGGUUUUUGGGUUUUUUUGGGAAAGUAUUAUGUUACGCCGUUCGGAUCUGCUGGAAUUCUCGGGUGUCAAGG: -1.16
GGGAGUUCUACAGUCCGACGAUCACCAUGCAGGUGGGCAUCUUUGGGAAGUGGGGCAAGGGGGGGAUAGGGAGGGGGUUAACACUUUGGGAACAGGUGGUCCCAGGUCGUUUCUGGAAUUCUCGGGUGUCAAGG: 1.46
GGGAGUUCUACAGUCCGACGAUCCCUCAAGUCCUGUGCUACACAUCGUAUGUACCGAAUCGGCCGGGGCCGGCCGGAAAGUAUUAUGUUACGCCGUUCGGAUCUGCACUUCCAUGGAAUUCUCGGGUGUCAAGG: 0.127
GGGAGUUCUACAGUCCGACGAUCAGUCCUGUGCUACACAUCGUAUGUACCGAAUCAAAUUUUUAAAUUUAAACCCCCAAAAAAGUAUUAUGUUACGCCGUUCGGAUCUGCACUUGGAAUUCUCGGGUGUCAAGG: 0.0933
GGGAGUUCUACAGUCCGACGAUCUCCUGUGCUACACAUCGUAUGUACCGAAUCAAACCCCCCCAAAUUUAAAUUUUUUUAAAAAAGUAUUAUGUUACGCCGUUCGGAUCUGCAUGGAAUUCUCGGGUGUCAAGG: 1.96
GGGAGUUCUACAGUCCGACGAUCGUCCUGUGCUACACAUCGUAUGUACCGAAUCGGGGAAAAAGGAAAAAGGGAAAAAGGGAAAGUAUUAUGUUACGCCGUUCGGAUCUGCACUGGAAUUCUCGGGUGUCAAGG: 0.128
